Assay results from different studies.
Each line is one published result; not all experiments were run side by side.
Organism: Staphylococcus aureus

SMILES | test | system | setting | scale | MIC
O=C1c2ccccc2NC(c2ccc(Cl)c([N+](=O)[O-])c2)N1/N=C/c1ccc(Cl)c([N+](=O)[O-])c1 (stereo not shown) | microbial growth, broth dilution | – | 24 h, drug-resistant strain, clinical isolate | – | > 256 µg/mL
CCC(CC)c1cc(C2CN3CCC2CC3CNC)nc(-c2ccncc2)n1 (stereo not shown) | microbial growth, broth dilution | ATCC29213 | – | – | 64 µg/mL
CC[C@H](C)[C@H](N)C1=N[C@H](C(=O)N[C@@H](CC(C)C)C(=O)N[C@H](CCC(=O)O)C(=O)N[C@H](C(=O)N[C@H]2CCCCNC(=O)[C@H](CC(N)=O)NC(=O)[C@@H](CC(=O)O)NC(=O)[C@H](Cc3c[nH]cn3)NC(=O)[C@@H](CC(C)C)NC(=O)[C@H]([C@@H](C)CC)NC(=O)[C@@H](CCCN)NC2=O)[C@@H](C)CC)CS1 | – | USA300 MRSA | 18 h, 37 °C, with: ZnSO4 0.3 mM | – | 4 µg/mL
CC(C)[C@H](NC(=O)[C@H](CCCNC(=N)N)NC(=O)[C@H](CCCNC(=N)N)NC(=O)[C@@H](NC(=O)[C@H](C)NC(=O)[C@H](CC(N)=O)NC(=O)[C@H](CCCNC(=N)N)NC(=O)[C@@H](NC(=O)[C@H](CCCNC(=N)N)NC(=O)[C@H](CCCNC(=N)N)NC(=O)[C@@H](NC(=O)[C@@H](NC(=O)[C@H](CCCNC(=N)N)NC(=O)[C@H](CCCNC(=N)N)NC(=O)[C@H](Cc1c[nH]c2ccccc12)NC(=O)[C@H](Cc1c[nH]c2ccccc12)NC(=O)CN)[C@@H](C)O)C(C)C)C(C)C)C(C)C)C(=O)O | bacterial growth | ATCC 25923 | 18 h | – | 256 µg/mL
CC[C@H](C)[C@H](NC(=O)[C@@H](NC(=O)CN)C(C)C)C(=O)N[C@@H](Cc1ccccc1)C(=O)N[C@@H](CC(N)=O)C(=O)N[C@@H](C)C(=O)N[C@@H](CC(C)C)C(=O)N[C@@H](CCCCN)C(=O)NCC(=O)N[C@H](C(=O)N[C@@H](C)C(=O)N[C@@H](CCCCN)C(=O)N[C@H](C(=O)N[C@H](C(=O)N[C@@H](C)C(=O)N[C@@H](C)C(=O)N[C@@H](CCC(N)=O)C(=O)N[C@@H](CC(C)C)C(=O)N[C@@H](CC(C)C)C(=O)N[C@@H](CCCCN)C(=O)N[C@@H](CCCCN)C(=O)N[C@@H](C)C(=O)N[C@@H](CCCNC(=N)N)C(=O)N[C@H]1CSSC[C@@H](C(=O)O)NC(=O)[C@H](CO)NC(=O)[C@H](CCCCN)NC(=O)[C@H](CC(=O)O)NC(=O)[C@H](CC(C)C)NC(=O)[C@H](CCCCN)NC1=O)C(C)C)[C@@H](C)O)C(C)C | – | NCTC 10788 | with: NH4Cl 6 µM | – | 2 µM
CC(C)C[C@H](NC(=O)[C@H](CCCCN)NC(=O)[C@H](C)NC(=O)[C@H](CC(C)C)NC(=O)[C@H](CCCCN)NC(=O)[C@H](CCC(N)=O)NC(=O)[C@H](CCCCN)NC(=O)[C@H](CC(C)C)NC(=O)[C@H](CCCCN)NC(=O)[C@H](CCC(N)=O)NC(=O)[C@H](CC(C)C)NC(=O)[C@H](CCCCN)NC(=O)[C@H](C)NC(=O)[C@H](CCCCN)NC(=O)[C@H](CC(C)C)NC(=O)[C@H](CCCCN)NC(=O)[C@H](C)NC(=O)[C@H](CC(C)C)NC(=O)[C@H](CCCCN)NC(=O)[C@H](CCC(N)=O)NC(=O)[C@@H](N)CCCCN)C(N)=O | – | ATCC 6538 | – | – | inactive
COc1cc2c(=O)c(C(=O)NCCNCCO)cn(Cc3ccccc3)c2cc1OCc1cccc(Cl)c1 | – | ATCC 43300 MRSA | – | ≥80% growth inhibition | > 32 µg/mL
CN1C(=O)[C@@H]2NC(=O)[C@@H]3NC(=O)[C@@H](c4ccc(O)cc4)NC(=O)[C@H](NC(=O)C(NCc4cc(O)cc(O)c4)c4ccc(O)cc4)Cc4c[nH]c5cc(ccc45)-c4cc3cc(c4O)Oc3ccc(cc3)C[C@H]1C(=O)N[C@@H](C(=O)O)c1ccc(O)c(c1)Oc1ccc2cc1 (stereo partly shown) | – | ATCC 33591 MRSA, Mueller-Hinton broth | – | – | 4 µg/mL
CCCCCCCCCCCCCC(=O)N[C@H](CCN)C(=O)N[C@@H]1C(=O)N[C@@H](CCN)C(=O)N[C@@H](CC(C)C)C(=O)N[C@@H](CCN)C(=O)N[C@H](Cc2ccccc2)C(=O)N[C@@H](CC(C)C)C(=O)N[C@@H](CCN)C(=O)N[C@H](CCN)C(=O)N[C@@H](C(C)C)C(=O)N[C@@H](CC(=O)O)C(=O)O[C@@H]1C | broth microdilution | USA 300, methicillin-resistant MDR | – | – | 2 µg/mL
CN[C@@H]1[C@H](O)[C@H](NC)[C@H]2O[C@]3(O)[C@H](O[C@@H]2[C@H]1O)O[C@H](C)C[C@@]3(O)CNCc1ccc(F)cc1 | – | MSSA ATCC 29213 | – | – | 25 to 50 µg/mL
CCCCc1ccc(-c2nc(C)c(C(C)=NNC(=N)N)s2)cc1 | – | USA500 MRSA | – | – | 1.3 µg/mL
Cc1cc(=O)nc(NC(=O)NCCCCCCNC(=O)NCCCCCCNC(=O)OCCOCCOCCOCCOCCOCCOCC(=O)N[C@@H](CC(C)C)C(=O)N[C@@H](CCCCN)C(=O)N[C@@H](CC(C)C)C(=O)N[C@@H](CC(C)C)C(=O)N[C@@H](CCCCN)C(=O)N[C@@H](CCCCN)C(=O)N[C@@H](CC(C)C)C(=O)N[C@@H](CC(C)C)C(=O)N[C@@H](CCCCN)C(=O)N[C@@H](CCCCN)C(=O)N[C@@H](CC(C)C)C(=O)N[C@@H](CC(C)C)C(=O)N[C@@H](CCCCN)C(=O)N[C@@H](CC(C)C)C(=O)N[C@@H](CC(C)C)C(N)=O)[nH]1 | – | MRSA AMC 201, RPMI medium | 24 h, 37 °C | – | 7.5 µM
C=C(NC(=O)C(=C)NC(=O)c1csc(C2=NC3c4csc(n4)C4NC(=O)c5csc(n5)C(C(C)(O)C(C)O)NC(=O)C5CSC(=N5)C(=CC)NC(=O)C(C(C)O)NC(=O)c5csc(n5)C3(CC2)NC(=O)C(C)NC(=O)C(=C)NC(=O)C(C(C)C)NC2C=Cc3c(C(C)O)cc(nc3C2O)C(=O)OC4C)n1)C(N)=O (stereo not shown) | broth microdilution | ATCC 10537 MRSA | 18 h, 37 °C | – | > 5 µg/mL
COc1ccc2ccc3c(c2c1)C=[N+]1C2CCCCC2[N+]2=Cc4ccc(-c5ccccc5)cc4[O][Au-]21[O]3.F[P-](F)(F)(F)(F)F (stereo not shown) | bacterial growth, broth microdilution | vancomycin-intermediate | 24 h | – | > 20 µM
NCCCC[C@@H]1NC(=O)[C@@H](CCCCN)NC(=O)[C@H](CCCCN)NC(=O)[C@@H](CCCCN)NC(=O)[C@H](Cc2c[nH]c3ccccc23)NC(=O)[C@@H](Cc2c[nH]c3ccccc23)NC(=O)[C@@H](N)CSCc2ccc(cc2)CSC[C@@H](C(N)=O)NC(=O)[C@@H](Cc2c[nH]c3ccccc23)NC(=O)[C@H](Cc2c[nH]c3ccccc23)NC(=O)[C@@H](CCCCN)NC1=O | – | Newman MSSA | – | – | 16 to 32 µg/mL
CCOC(=O)c1cnc(N2CC[C@@H](NC(=O)c3[nH]c(C)c(Cl)c3Cl)[C@@H](OC)C2)o1 | – | ATCC 29213 | – | – | 2 µg/mL
CC(C)CCCCCCCCC/C=C/C(=O)N[C@@H](CC(=O)O)C(=O)N[C@H]1CNC(=O)[C@@H]2CCCN2C(=O)[C@H](C(C)C)NC(=O)[C@@H]([C@@H](C)O)NC(=O)CNC(=O)[C@H](CC(=O)O)NC(=O)CNC(=O)[C@H](CC(=O)O)NC(=O)[C@H](CC(=O)O)NC(=O)[C@H]2CCCCN2C1=O | – | MRSA USA300 | 16 h, 37 °C, with: Ca2+ 10 mM | – | 4 µg/mL
CCCCc1ccc(N2C(=O)/C(=N\NC(=N)N)c3ccccc32)cc1 | broth microdilution | BAA41 MRSA | 18 h, 37 °C | – | 6 µg/mL
CC[C@H](C)[C@H](NC(=O)[C@H](CCCCN)NC(=O)[C@H](CCCNC(=N)N)NC(=O)[C@@H](NC(=O)[C@H](CC(C)C)NC(=O)[C@H](CCCCN)NC(=O)[C@H](CC(C)C)NC(=O)[C@@H](NC(=O)[C@H](CCCCN)NC(=O)CNC(=O)[C@H](Cc1ccccc1)NC(=O)[C@@H](N)Cc1ccccc1)C(C)C)[C@@H](C)CC)C(=O)N[C@@H](Cc1ccccc1)C(N)=O | broth microdilution | USA300 MRSA | – | – | 3.12 µM
C[C@@H](N)[C@H](O)CCCCCCCC(=O)CCCCCCCCCCCCCC[C@@H](O[C@@H]1O[C@H](CO)[C@@H](O)[C@H](O)[C@H]1O)[C@@H](N)CO | microbial growth, resazurin | ATCC12600 | 6 h | – | 11.8 µM
CC[C@H](C)[C@H](NC(=O)[C@H](CCCCNC(=N)N)NC(=O)[C@H](CC(N)=O)NC(=O)[C@H](CC(C)C)NC(=O)[C@H](Cc1ccccc1)NC(=O)[C@H](CCCCNC(=N)N)NC(=O)[C@H](CCCCNC(=N)N)NC(=O)[C@H](CC(C)C)NC(=O)[C@H](CC(C)C)NC(=O)[C@H](CCCCNC(=N)N)NC(=O)[C@H](CCCCNC(=N)N)NC(=O)[C@H](CC(C)C)NC(=O)CNC(C)=O)C(=O)N[C@@H](CCCCNC(=N)N)C(=O)N[C@@H](CCCCNC(=N)N)C(N)=O | broth microdilution | multidrug-resistant | – | – | 3.12 µM
N=C(N)NCCC[C@@H]1NC(=O)[C@H](CCCNC(=N)N)NC(=O)[C@H](CCCNC(=N)N)NC(=O)[C@H](Cc2c[nH]c3ccccc23)NC(=O)[C@H](Cc2c[nH]c3ccccc23)NC(=O)[C@H](Cc2c[nH]c3ccccc23)NC(=O)[C@H](Cc2c[nH]c3ccccc23)NC(=O)[C@H](CCCNC(=N)N)NC1=O | broth microdilution | MRSA ATCC 43300 | 37 °C | – | 2.67 to 9.75 µg/mL
O.O=[N+]([O-])[O-].O=c1cc[nH]c(=S)[nH]1.[Ag+].c1ccc(P(c2ccccc2)c2ccccc2)cc1.c1ccc(P(c2ccccc2)c2ccccc2)cc1 | agar dilution | methicillin-resistant | 24 h, 37 °C | – | 50 µg/mL
CN1C(=O)[C@@H]2NC(=O)[C@@H]3NC(=O)[C@@H](c4ccc(O)cc4)NC(=O)[C@H](NC(=O)C(NCc4cc(C(F)(F)F)cc(C(F)(F)F)c4)c4ccc(O)cc4)Cc4c[nH]c5cc(ccc45)-c4cc3cc(c4O)Oc3ccc(cc3)C[C@H]1C(=O)N[C@@H](C(=O)O)c1ccc(O)c(c1)Oc1ccc2cc1 (stereo partly shown) | – | ATCC 33591 MRSA, Mueller-Hinton broth | – | – | 8 µg/mL
c1ccc(CN2CCOCCOCCN(CCCCCCCCCCCCCCN3CCOCCOCCN(CCCCCCCCCCCCCCN4CCOCCOCCN(Cc5ccccc5)CCOCCOCC4)CCOCCOCC3)CCOCCOCC2)cc1 | microbial growth | MRSA USA300 | drug-resistant strain | – | 1.5 µM
CC[C@H](C)c1occ2c(=O)c(C(=O)O)c(O)cc-2c1C | microbial growth, broth dilution | ATCC700699 MRSA | drug-resistant strain | – | 50 µM
CCn1cc(C(=O)NCCCCCC(=O)N[C@@H](CCCNC(=N)N)C(=O)N[C@@H](Cc2c[nH]c3ccccc23)C(=O)N[C@@H](CCC(N)=O)C(=O)N[C@@H](Cc2c[nH]c3ccccc23)C(=O)N[C@@H](CCCNC(=N)N)C(=O)N[C@@H](Cc2c[nH]c3ccccc23)C(=O)N[C@@H](CCC(N)=O)C(=O)N[C@@H](Cc2c[nH]c3ccccc23)C(=O)N[C@@H](CCCNC(=N)N)C(N)=O)c(=O)c2cc3c(cc21)OCO3 | broth microdilution | ATCC 25923 | 24 h, 37 °C | – | 54 µM
C=CCCC[C@@H]1NC(=O)[C@H](CC(C)C)NC(=O)[C@H](C)NC(=O)[C@H](NC(=O)[C@H](CO)NC(=O)[C@@H](CCCCN)NC(=O)[C@@H](CCCC=C)NC(=O)[C@@H](N)Cc2ccccc2)[C@H](C)OC1=O | – | MRSA ATCC 700698 | TFA salt | – | 4 µg/mL
